Assay results gathered from unrelated publications.
Target: Serine/threonine-protein kinase tousled-like 2 (TLK2, Homo sapiens, UniProt Q86UE8)

SMILES	assay	system	setting	scale	endpoint	result
Cc1ccc(-c2c(/C=C(\C#N)C(=O)NC(C)C)n(CCCO)c3ncnc(N)c23)cc1	cell-free assay, competition with immobilised ligand		1 µM		remaining binding	82%
CCN1CCN(Cc2ccc(C(=O)Nc3ccc(C)c(NCc4cnc5[nH]ccc5c4OC)c3)cc2C(F)(F)F)CC1	binding, competition with immobilised ligand		1 µM		remaining binding	100%
O=C=[N][Ru-4]123([n]4c5ccc(O)cc5c5c6c(c7cc(F)c[n+]1c7c54)C(=O)NC6=O)[S+]1CC[S+]2CC[S+]3CC1 (stereo not drawn)	enzyme activity		100 nM, human enzyme, together with: 10 µM ATP	reference: untreated	remaining activity	108%
C=CC(=O)N1Cc2nc(-c3cc(-c4cc(Cl)cnc4Cl)c(F)cc3F)n(-c3ccncn3)c2C1	cell-free assay, inhibitor		1 µM		inhibition	8%
CNC(=O)C1CCN(c2cc(C)c(F)cc2NC(=O)c2ccc(-c3cc(O)ccc3C)c(C)c2)CC1	binding, competition with immobilised ligand		1 µM		remaining binding	96%
CCn1cc(C(=O)O)c(=O)c2c(N)c(F)c(NC3CCCCC3)cc21	kinase activity		0.1 µM, together with: ATP at Km		inhibition	-11.8%
CNC(=O)C[C@H](Cc1ccc(C#N)cc1)NC(=O)c1cc(-c2ccc(CN[C@H](C)c3ccc(C)cc3)o2)ccc1Cl	enzyme activity, inhibitor		1 µM		activity vs control	92%
COc1cc(Nc2nccc(-c3cnn4nc(OC)ccc34)n2)cc(C(F)(F)F)c1	binding, competition with immobilised ligand		1 µM		remaining binding	100%
NC(=O)[C@@H](O)C[C@H]1CCc2sc3ncnc(O[C@H]4CC[C@H](N5CCOCC5)CC4)c3c21	enzyme activity, inhibitor		10 µM		inhibition	-5%
O=C(Cc1ccc(OCc2ccccc2)cc1)NC1(C(=O)O)CCN(C(=O)c2ccc(-c3cccc(Cl)c3)cc2)CC1	enzyme activity, inhibitor		10 µM		activity vs control	110%
CCN1CCN(Cc2ccc(NC(=O)c3ccc(C)c(NC(=O)c4cncc(-c5cnn(C)c5)c4)c3)cc2C(F)(F)F)CC1	binding, competition with immobilised ligand		1 µM		remaining binding	96%
Nc1ncc2c(n1)-c1c([nH]c3ccc(C4=CCOCC4)cc13)CCC2	binding, competition with immobilised ligand		1 µM		remaining binding	100%
COc1c(Cl)cccc1Nc1c(-c2ccncc2C#C[C@@]2(C)CCCN2C(=O)/C=C/CN(C)C)[nH]c2c1C(=O)NCC2	cell-free assay, competition with immobilised ligand		3 µM		remaining binding	93%
Cc1ccc(C(=O)Nc2ccc(CN3CCN(C)CC3)c(C(F)(F)F)c2)cc1C#Cc1cnc2cccnn12	target engagement, NanoBRET	human cells			Hill slope	0.112
COc1ccc(NC(=O)Nc2ccc3c(c2)C(=O)N(C(C)CO)CC(C)C(CN(C)Cc2ccc4c(c2)OCO4)O3)cc1 (stereo not drawn)	kinase activity, KinaseProfiler		0.03 µM, species human	reference: control	remaining activity	121%

For quick reference, copied from above:
SMILES	assay	system	setting	scale	endpoint	result
Nc1ncc2c(n1)-c1c([nH]c3ccc(C4=CCOCC4)cc13)CCC2	binding, competition with immobilised ligand		1 µM		remaining binding	100%
COc1c(Cl)cccc1Nc1c(-c2ccncc2C#C[C@@]2(C)CCCN2C(=O)/C=C/CN(C)C)[nH]c2c1C(=O)NCC2	cell-free assay, competition with immobilised ligand		3 µM		remaining binding	93%
